Published values pooled from the literature.
Compare with care: the assays were run in different laboratories. Several values in a cell are separate wells, animals, samples, runs or records. ± gives the spread as reported.

SMILES | test system | conditions | Cmin
Cc1ncnc2c1ccn2[C@@H]1C[C@H](Oc2cc(C(F)F)c(F)c3c2CNCC3)[C@@H](O)[C@H]1O | human | oral, 1 mg twice daily | 7.19 ng/mL and 13.6 ng/mL
C[C@H](CCC(=O)O[C@@H]1O[C@H](C(=O)O)[C@@H](O)[C@H](O)[C@H]1O)[C@H]1CC[C@H]2[C@@H]3[C@H](O)C[C@@H]4C[C@H](O)CC[C@]4(C)[C@H]3CC[C@]12C | human, plasma | control | 12.6 ± 1.7 nM
Cc1cc(/C=C/C#N)cc(C)c1Nc1ccnc(Nc2ccc(C#N)cc2)n1 | human, haemodialysis patients, plasma | oral, dose not given, steady state, added: dolutegravir (fixed-dose combination) | 49 ng/mL
Fc1ccc([C@@H]2CCNC[C@H]2COc2ccc3c(c2)OCO3)cc1 | human, CYP2D6 normal metabolizers, plasma | oral, 20 mg, steady state | 10 ng/mL
O=C(O)CCCCCCCCCCCCCCC(=O)O | human, plasma | oral, dose not given, control | 104 ± 14 nM
Cn1cc(-c2cn3nccc3c(-c3cnn([C@]4(CC#N)C[C@@H](C#N)C4)c3)n2)cn1 | healthy humans fed, plasma | 1200 mg once daily, day 10, geometric mean | 62.3 ng/mL
C[C@H](CCC(=O)O)[C@H]1CC[C@H]2[C@@H]3[C@H](O)C[C@@H]4C[C@H](O)CC[C@]4(C)[C@H]3CC[C@]12C | human, plasma | oral, dose not given, control | 161 ± 55 nM
CCCCOCCOc1ccc(-c2ccc3c(c2)/C=C(/C(=O)Nc2ccc([S@@+]([O-])Cc4cncn4CCC)cc2)CCCN3CC(C)C)cc1 | human, moderate hepatic impairment, plasma | oral, 150 mg, day 1 | 87.3 ng/mL
O=C(O)CCC(=O)O.[2H]C([2H])([2H])Oc1cc(C)c2[nH]ccc2c1CN1CC[C@@H](C2CC2)C[C@H]1c1ccc(C(=O)O)cc1 | human, plasma | 125 mg twice daily, day 10, multiple ascending dose, geometric mean | 2850 ng/mL
CCOc1c([C@H](C)n2nc(C)c3c(N)ncnc32)cc(Cl)c(F)c1[C@@H]1CNC(=O)C1 | human patients, plasma | oral, 15 mg once daily, cycle 1 day 15, monotherapy, geometric mean | 129 nM

Repeated from above:
SMILES | test system | conditions | Cmin
Cc1ncnc2c1ccn2[C@@H]1C[C@H](Oc2cc(C(F)F)c(F)c3c2CNCC3)[C@@H](O)[C@H]1O | human | oral, 1 mg twice daily | 7.19 ng/mL and 13.6 ng/mL
